Published values collected from several papers.
± gives the spread as reported.

| Structure (SMILES) | test | test system | setting | tissue uptake |
| --- | --- | --- | --- | --- |
| CSCC[C@H](NC(=O)CNC(=O)[C@H](CCCCN)NC(=O)[C@H](CC(C)C)NC(=O)[C@@H]1CCCN1C(=O)[C@H](CO)NC(=O)[C@H](Cc1c[nH]cn1)NC(=O)[C@H](Cc1c[nH]c2ccccc12)NC(=O)[C@H](CCCNC(=N)N)NC(=O)[C@H](CC(C)C)NC(=O)[C@H](CCCNC(=N)N)NC(=O)[C@H](Cc1c[nH]c2ccccc12)NC(=O)[C@H](CS)NC(=O)CCCCCNC(=O)CN1CCN(CC(=O)O)CCN(CC(=O)O)CCN(CC(=O)O)CC1)C(=O)O [copper-64 labelled] |  | C57BL/6J mice, B16-F10 tumour, blood | intravenous, 1.85 MBq, 0.5 h | 3.15 %ID/g |
| CC[C@H](C)[C@H](NC(=O)[C@H](CCCCN)NC(=O)CNC(=O)[C@H](CC(C)C)NC(=O)[C@H](Cc1ccccc1)NC(=O)[C@H](CCCCN)NC(=O)[C@H](CO)NC(=O)[C@H](Cc1ccccc1)NC(=O)[C@H](Cc1c[nH]c2ccccc12)NC(=O)[C@H](CCC(N)=O)NC(=O)[C@@H](NC(=O)[C@H](Cc1ccccc1)NC(=O)CCCCCNC(=O)CN1CCN(CC(=O)O)CCN(CC(=O)O)CCN(CC(=O)O)CC1)C(C)C)C(=O)N[C@@H](CCC(=O)O)C(=O)N1CCC[C@H]1C(=O)N[C@@H](CC(=O)O)C(=O)N[C@H](C(=O)N[C@@H](CO)C(=O)N[C@@H](CCC(N)=O)C(=O)N[C@H](C(=O)N[C@@H](CCC(N)=O)C(=O)N[C@@H](CC(=O)O)C(=O)N1CCC[C@H]1C(=O)N[C@@H](CC(N)=O)C(=O)N[C@@H](CC(=O)O)C(=O)N[C@@H](CCC(N)=O)C(=O)N[C@@H](Cc1ccc(O)cc1)C(=O)N[C@@H](CCC(=O)O)C(=O)N1CCC[C@H]1C(=O)N[C@@H](Cc1ccccc1)C(=O)O)C(C)C)C(C)C [copper-64 labelled] |  | C57BL/6 mice, male, naive, brown fat | 2 h | 2.93 ± 0.5 %ID/g |
| CN1Cc2cc(Cl)ccc2-n2c(nnc2C2CCN(c3cccc([18F])n3)CC2)C1 |  | C57BL/6 mouse male, spleen | intravenous, 3.7 MBq, 60 min | 2.89 ± 0.27 %ID/g |
| CC[C@H](C)[C@H](NC(=O)[C@H](CCCNC(=N)N)NC(=O)[C@H](CCCCN)NC(=O)[C@H](Cc1ccc(O)cc1)NC(=O)[C@H](CC(=O)O)NC(=O)[C@H](C)NC(=O)CNC(=O)CCOCCOCCOCCNC(=O)CN1CCN(CC(=O)O)CCN(CC(=O)O)CCN(CC(=O)O)CC1)C(=O)N[C@H](C(=O)N[C@@H](CC(C)C)C(=O)N[C@@H](CCCCN)C(=O)N[C@H](C(=O)N[C@@H](CC(N)=O)C(N)=O)C(C)C)[C@@H](C)O [copper-64 labelled] | ex vivo gamma counting | C57BL/6J male mice, B16-F10 tumour, brain | intravenous, 1.85 MBq, 40 min | 0.126 ± 0.038 %ID/g |
| CC(C)C[C@@H](NC(=O)[C@@H](CCCNC(=N)N)NC(=O)[C@@H](Cc1c[nH]cn1)NC(=O)[C@@H](Cc1c[nH]c2ccccc12)NC(=O)[C@@H](Cc1c[nH]cn1)NC(=O)[C@@H](Cc1ccccc1)NC(=O)[C@H](NC(=O)[C@@H](Cc1ccc(O)cc1)NC(=O)CNC(=O)CNC(=O)CCOCCOCCOCCNC(=O)CN1CCN(CC(=O)O)CCN(CC(=O)O)CC1)[C@H](C)O)C(=O)N[C@H](CC(N)=O)C(=O)N1CCC[C@@H]1C(=O)O [gallium-68 labelled] |  | C57BL/6 mice, male, heart | intravenous, 1.85 MBq, 60 min, together with: blocking antibody | 1.06 ± 0.46 %ID/g |
| CC[C@H](C)[C@H](NC(=O)[C@H](CCCNC(=N)N)NC(=O)[C@H](CCCCN)NC(=O)[C@H](Cc1ccc(O)cc1)NC(=O)[C@H](CC(=O)O)NC(=O)[C@H](C)NC(=O)CNC(=O)CCOCCOCCOCCNC(=O)CN1CCN(CC(=O)O)CCN(CC(=O)O)CCN(CC(=O)O)CC1)C(=O)N[C@H](C(=O)N[C@H](C(=O)N[C@@H](CCCCN)C(=O)N[C@H](C(=O)N[C@@H](CC(N)=O)C(N)=O)C(C)C)C(C)C)[C@@H](C)O [copper-64 labelled] | ex vivo gamma counting | C57BL/6J male mice, B16-F10 tumour, brain | intravenous, 1.85 MBq, 100 min | 0.079 ± 0.005 %ID/g |
| C[C@H](O)[C@@H](NC(=O)[C@H]1CCCN1C(=O)[C@@H](CCCCN)NC(=O)[C@@H](CO)NC(=O)[C@@H](Cc1ccc(O)cc1)NC(=O)[C@@H](CC(N)=O)NC(=O)CCOCCOCCOCCNC(=O)CN1CCN(CC(=O)O)CCN(CC(=O)O)CCN(CC(=O)O)CC1)C(=O)N[C@H](CC(=O)O)C(=O)N[C@H](CCCNC(=N)N)C(=O)N[C@H](CCC(N)=O)C(=O)N[C@H](Cc1ccc(O)cc1)C(=O)N[C@H](Cc1c[nH]cn1)C(=O)N[C@H](Cc1ccccc1)C(N)=O [copper-64 labelled] |  | C57BL/6J mice, spleen | intravenous, 1.85 MBq, 0.3333 h, radiolabelled | 0.63 ± 0.16 %ID/g |
| CCCC[C@H]1C(=O)N(C)[C@@H](CCCC)C(=O)N[C@@H](CCCNC(=O)CN2CCN(CC(=O)O)CCN(CC(=O)O)CCN(CC(=O)O)CC2)C(=O)N[C@H](C(=O)NCC(N)=O)CSCC(=O)N[C@@H](Cc2ccc(O)cc2)C(=O)N(C)[C@@H](C)C(=O)N[C@@H](CC(N)=O)C(=O)N2CCC[C@H]2C(=O)N[C@@H](Cc2c[nH]cn2)C(=O)N[C@@H](CC(C)C)C(=O)N(C)CC(=O)N[C@@H](Cc2c[nH]c3ccccc23)C(=O)N[C@@H](CO)C(=O)N[C@@H](Cc2c[nH]c3ccccc23)C(=O)N1C [gallium-68 labelled] |  | NOD/SCID mice with CHO-hPD-L1 xenograft, intestine | 120 min post injection | 2.55 ± 0.83 %ID/g |
